Experimental data of several laboratories.
Every numbered part comes from another study and shows a few of its results, in no order. Substitutions count along the parent as printed.

Block 1 — method: RNA Bind-n-Seq; molecule type: RNA; medium: in vitro; tested at: 365 nM; baseline: no-protein control; reading: higher = stronger binding; measurement: RBNS enrichment (R)
Target: RNA binding protein fox-1 homolog 2, RRM domain, GST-SBP tag (RBFOX2, Homo sapiens, UniProt O43251-10, residues 100-194)
Setting: natural RNA segment, single round, ends assumed
Constant ends, left off below: GGGAGUUCUACAGUCCGACGAUC … UGGAAUUCUCGGGUGCCAA
Target sequence (chain): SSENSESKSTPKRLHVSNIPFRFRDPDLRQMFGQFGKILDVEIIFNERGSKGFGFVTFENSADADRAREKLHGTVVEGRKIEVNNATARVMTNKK
UUUCUCUGGAGGCAUUUUUGGGAAUGUACGUGUAAUAGGCUCUGCUUUGUAUACAGGAGAUAAUACCACAUCAUCGGUUAUCUCCAAACUCCAGUCUUCUCUCAACUGCC: 0.323
CCAAGUUUUGGGUGUGAAAUGUUGCCAGCUUCCUAUAAUGUAAACGGACUUGUUAACCUAACCUAAUUAUGCUCAGUGGACUUCUAUAGAUGGUUUUGAAAAAUGAACUG: 0.586
GUCAGUAUGCCCCAAAGCUUGCUCUUUUGUGCUCCCUUUUGAAUAACUUUCUAUCCAGAAAAAGAGAUUAUUUGGGACUUGAGAUUUGCAGUGAUACCAACUUAUAGCAA: 0.558
CUCAAUCUUGACCAGACAAGAGAACAGUUAAGUUCUCUCAGUUGGGUAGUAACUUGAAUACCAGUCUAUUUAUCAGUUGGUUUCAACACAGAGGUUUCAAGUGGAAAGCC: 0.287
CAGCCUCUGGGUCCAGCCAGAGCCCCUGGCUUCUCCGCCACCCACACCCUUCCCACCCUGCUGUGGGGCCCUGCCUUUGUGGGGAGCAGCCAGCCCUCUGCCCCUGCCCA: 0.347
UGUGGUAUCCAAGGAAUCACUUUUAUGAGGGCUAAAGAUAAAGAAUUUGGCCAGAAAAUGCAGCCAUCCUUGUGUGAUUAGGAGGGUUUCAGGGGCCACUGGACUAUUUG: 0.49
CACACUGACUAUGUCUUUAGGAUUUUAAGUUUAAGUUGUAGCUGCAGAUGGGGGCCUGUGGCUCCCGUUUUCAUUGUAGUAUUUUAUCCCCUGCACCCACUCCCUUCAUA: 0.274
GCAAGGGUCCCAGCUGCCCCGAGGCAGUCUGUGGCCCUGGUUGAAGGAAGCACAAACUAGAUGUCUGCAUCUCAUCUGGGCGUGCAGACAGGUGAGGAUCAGCAGGGUCC: 0.334
UUCUCCUCUCCUGGCCCUGCUCCCAGAUUGCAGCCUCCCUGCAGUGUCUGCCCUUGCCACCUCCCAGCCUGCUGCAUGCAUGUGCAGCAUGGGCUUUUGCUCCAUCACCG: 8.85
CUCCUGGGGUUUCGUUUCUAUGUGAGAGACGGGGACCCGGUUCUGUUGUGUGCAGCUUUAGCGGCAUCAGGACAGCUUCCAGCUUGCAAUGAUUGCUGCUGACAGGAACA: 0.313
UCCGCCAUACUGUUCUGGUGAUAGUGAAUAGAUCUCAUGAGAGCUGAUGAUUUUAUAAGAGGUUUCCCCUUUUGCUUAGUUCUCAUUCUCUCUUGCCUGCCGCCAUGUAA: 0.286
UUCCAGGGAUUCUGGUAAAGGUGGUUUCUUGCAUCCCACUCCCCUUUUACCUUGGCUUUGACAUAGGAAAGGUAUAUUUAAAAACUUAAUCAGCUGGGCGUGGUGGCUCA: 1.91

Block 2 — target: CCNB1, cyclin fold, Cln2 fusion (human); method: yeast growth competition, sequencing; medium: yeast; setting: weak parent motif; baseline: not given; reading: higher = stronger binding; measurement: normalised enrichment score
Starting sequence: CDKN1A docking peptide (human); SKACRRLFGPVDS
S13A: 0.739
K2Q: 0.291
L7H: 0.598
F8Q: 0.0272
A3N: -0.208
P10N: 0.351
G9Q: 0.544
P10T: -0.142

Block 3 — method: DHFR PCA, deep sequencing; medium: yeast; with: (+)-ABA 0.11 µM; baseline: wild-type fitted maximum; reading: higher = stronger binding; measurement: relative binding score
Target: ABI1, truncated, D143A, DHFR fusion (Arabidopsis thaliana)
Setting: methotrexate growth selection, single substitutions
Starting sequence: PYL1, truncated, DHFR fusion (Arabidopsis thaliana); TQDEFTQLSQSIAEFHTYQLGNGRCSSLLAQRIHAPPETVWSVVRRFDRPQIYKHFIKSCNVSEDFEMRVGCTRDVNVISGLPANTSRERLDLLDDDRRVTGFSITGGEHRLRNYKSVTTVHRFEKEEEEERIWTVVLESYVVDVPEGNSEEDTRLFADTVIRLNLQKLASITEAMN; partner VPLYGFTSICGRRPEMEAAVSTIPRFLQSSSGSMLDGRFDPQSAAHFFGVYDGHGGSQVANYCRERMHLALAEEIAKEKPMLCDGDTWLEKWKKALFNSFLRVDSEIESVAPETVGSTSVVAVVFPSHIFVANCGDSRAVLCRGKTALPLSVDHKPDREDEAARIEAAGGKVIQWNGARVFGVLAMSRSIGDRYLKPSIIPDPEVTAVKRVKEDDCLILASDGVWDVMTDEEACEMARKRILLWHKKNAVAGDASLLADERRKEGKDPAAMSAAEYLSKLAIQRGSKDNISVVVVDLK
P37A: 26.4%
P36R: 14.3%
E4L: 33.9%
D97V: 29.8%
R88G: -1.32%
T119C: 2.3%
E4N: 10.9%
E128Q: 21.7%
D153L: -0.135%
N85W: 52.7%

Other studies, line by line
PhoQ, residues 284 288 289 292 302 303 ASVMEA — fold induction (PhoP, residues 12 14 15 18 19 HEGLL (Escherichia coli, UniProt P23836); Sort-seq, refers to: YFP reporter; E. coli; PhoQ-PhoP variant library, with: 10 µM Mg2+; baseline: high Mg2+ state, higher = stronger signaling): 11.8

Excerpt of the above (block 2):
P10N: 0.351
A3N: -0.208
S13A: 0.739
